Assay results gathered from unrelated publications.
Parts stem from different laboratories: compare values within a part only.

Study 1 — method: protein binding microarray; molecule type: double-stranded DNA, one strand shown; matrix: in vitro; tested at: not given; reference: not given; reading: higher = stronger binding
Target: Histone acetyltransferase KAT6A, winged helix 1, GST fusion (KAT6A, Homo sapiens, UniProt Q92794, residues 1-85)
Setting: 8-mer, flanks averaged, mean of 2 arrays, mostly near background
Construct (chain): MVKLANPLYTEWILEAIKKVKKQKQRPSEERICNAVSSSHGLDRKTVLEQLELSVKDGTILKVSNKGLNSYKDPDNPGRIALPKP
Strand	E-score
ACATGACA	-0.137
GAATATGA	-0.2
GAACGGGC	0.237
ATTTGTAG	-0.198
CCGCGGAC	0.407
CAGGATAA	-0.27
ACCGAATG	-0.0471
GCTCGTGA	-0.147
CCACTTAC	-0.152

Study 2 — method: RNA Bind-n-Seq; molecule type: RNA; matrix: in vitro; tested at: 365 nM; reference: no-protein control; reading: higher = stronger binding
Target: RNA binding protein fox-1 homolog 2, RRM domain, GST-SBP tag (RBFOX2, Homo sapiens, UniProt O43251-10, residues 100-194)
Setting: natural RNA segment, single round, ends assumed
Residues (chain): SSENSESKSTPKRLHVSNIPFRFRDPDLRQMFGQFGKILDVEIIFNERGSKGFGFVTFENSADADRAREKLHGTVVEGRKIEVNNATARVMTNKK
Strand	RBNS enrichment (R)
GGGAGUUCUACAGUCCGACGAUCUAGUUACAACCUAUUCUUUUGCAUACAUAGCCUUUCCUUCCCUGCAAAAAGUUAAGCCUGCUAAGUAUUCAGAUCCCUGUCAUUUACUUCUCAGCAGUCUCAUUCAAGCUUGGAAUUCUCGGGUGCCAA	0.549
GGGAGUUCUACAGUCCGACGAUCACUUCUUUGCAUAUGACAAUACUUAUUUGUAUAUAAGAGAAAGAACGAAAUAACCUUUAUUGAAAUAAAGAUACUAUGCAAGAAAAUGUACAGUUGUCGAAGUGGAGAAAUGGAAUUCUCGGGUGCCAA	0.688
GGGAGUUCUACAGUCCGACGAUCGGGACACCUAGGUGGGAGCAUCGCUUGAAGCCAGGAGUUCAAGACCAGCUUGGGCAACGUAGUGAGACCCCUAUCUCUACAAAAAAUAAAAAAAUUAGCUGGGUGUGAUGUGGAAUUCUCGGGUGCCAA	0.674
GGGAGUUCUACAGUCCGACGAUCACAAAGCCUCUGAAAGAUGCAUCAUCUCUUCCUCACACCCAUUUAGUGGGGGAUGGGUCCUCUAGACUUGAGGGGCUACCCUGGGAAGCUGCCGUAGCUUCAGCCAGGCAUGGAAUUCUCGGGUGCCAA	0.319
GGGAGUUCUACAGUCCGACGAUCAUCAGUUAUCACAGCUGCCUGUGGGUCCCGGGUAUUUCCAUUCCUGCCCCUUGUUGGCCCGAGGAAGGAUGUGGAAAGAGCACCUGGUGGGAUGAAGGUCCAACAGCCUGUGGAAUUCUCGGGUGCCAA	0.289
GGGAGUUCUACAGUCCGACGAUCUGUGGCUGCCGCGGAGUGUGCCCUGGCCCUGGGCACUGAAGUGUUACAGUGGCUCGUUGCUUCCCUCACUCUGCCCUUGUUAAUAGAAAUUCUCACAGGCCAGGCUCUGUUGGAAUUCUCGGGUGCCAA	0.317

Study 3 — method: protein-binding microarray; molecule type: double-stranded DNA, one strand shown; matrix: in vitro; tested at: 250 nM; setting: 60-bp whole probe; together with: salmon DNA 0.4 mg/ml; reference: random background probes; reading: higher = stronger binding; shared flanks, not repeated: GCCTAGCAC … GTCTTGATTCGCTTGACGCTGCTG
Target: Interferon regulatory factor 7, full length, phosphomimetic (IRF7, Homo sapiens, UniProt Q92985, residues 1-503, S101K/S471D/S472D/S475D/S476D/S477D/S483D/S484D/S487D)
Residues (chain): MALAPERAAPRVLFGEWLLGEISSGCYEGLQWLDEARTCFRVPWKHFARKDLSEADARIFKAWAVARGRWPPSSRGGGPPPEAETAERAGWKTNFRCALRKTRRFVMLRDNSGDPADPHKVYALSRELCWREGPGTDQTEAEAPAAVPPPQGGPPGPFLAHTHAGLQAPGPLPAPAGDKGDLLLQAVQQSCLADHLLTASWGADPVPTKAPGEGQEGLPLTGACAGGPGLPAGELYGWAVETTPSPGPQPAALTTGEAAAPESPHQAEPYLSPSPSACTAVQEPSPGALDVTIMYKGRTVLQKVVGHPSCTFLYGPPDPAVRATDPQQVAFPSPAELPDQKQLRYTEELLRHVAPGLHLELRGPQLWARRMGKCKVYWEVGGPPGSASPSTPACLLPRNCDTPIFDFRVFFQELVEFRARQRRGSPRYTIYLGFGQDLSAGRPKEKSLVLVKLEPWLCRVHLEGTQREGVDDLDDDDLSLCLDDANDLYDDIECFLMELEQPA
Strand	log fluorescence
TTAGGTATCGGGACTAGGTTAGTGCTA	0.265 z-score
GAAGGTTTCGACTTTCGGGACGTGCTA	10.4 z-score
GACGGTCTCCTTTTCCGGACGTGCTAG	1.46 z-score
TTAGGTCTGGACTTTCGGTTAGTGCTA	0.562 z-score
TTAGGTTTAGGACTGGGTTAGTGCTAG	0.323 z-score

Further values, each from its own experiment
Substance	target	assay	system	setting	how to read	endpoint	value
PhoQ, residues 284 288 289 292 302 303 ASVMEA	PhoP, residues 12 14 15 18 19 LHATL (Escherichia coli, UniProt P23836)	Sort-seq, measured: YFP reporter	E. coli	PhoQ-PhoP variant library, together with: 10 µM Mg2+	reference: high Mg2+ state, higher = stronger signaling	fold induction	32.8
